# Results of several laboratories.
# Protein sequences, listed by entry. Tags and fused reporters are not part of them. Lines headed by an entry give the natural chain unless they say otherwise; changes in a name come on top. Residues count along the entry.
# UniProt Q14833, 33-912 limits assumed: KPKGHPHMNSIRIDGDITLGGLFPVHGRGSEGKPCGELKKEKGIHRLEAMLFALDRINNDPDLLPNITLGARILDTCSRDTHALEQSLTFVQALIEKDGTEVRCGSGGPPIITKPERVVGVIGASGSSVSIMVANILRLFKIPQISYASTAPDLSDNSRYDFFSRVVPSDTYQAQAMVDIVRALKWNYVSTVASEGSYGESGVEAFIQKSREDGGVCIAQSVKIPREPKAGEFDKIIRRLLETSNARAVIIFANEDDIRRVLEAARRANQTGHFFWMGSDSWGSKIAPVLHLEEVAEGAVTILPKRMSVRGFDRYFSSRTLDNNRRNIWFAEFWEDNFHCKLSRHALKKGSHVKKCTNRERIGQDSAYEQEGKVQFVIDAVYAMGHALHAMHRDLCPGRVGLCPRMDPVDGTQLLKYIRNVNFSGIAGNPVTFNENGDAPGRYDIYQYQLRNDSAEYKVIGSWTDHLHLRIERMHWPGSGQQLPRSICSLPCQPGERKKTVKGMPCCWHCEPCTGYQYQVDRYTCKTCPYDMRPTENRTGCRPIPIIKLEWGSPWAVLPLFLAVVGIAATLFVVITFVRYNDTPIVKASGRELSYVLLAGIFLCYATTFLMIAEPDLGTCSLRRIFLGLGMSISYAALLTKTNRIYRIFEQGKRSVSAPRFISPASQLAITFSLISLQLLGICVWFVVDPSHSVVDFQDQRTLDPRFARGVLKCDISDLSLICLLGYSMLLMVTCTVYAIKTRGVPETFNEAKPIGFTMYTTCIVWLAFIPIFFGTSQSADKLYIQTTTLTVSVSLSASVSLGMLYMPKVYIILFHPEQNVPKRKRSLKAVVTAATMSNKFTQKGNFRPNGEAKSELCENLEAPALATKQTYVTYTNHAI
# UniProt P31421, 19-872 limits assumed: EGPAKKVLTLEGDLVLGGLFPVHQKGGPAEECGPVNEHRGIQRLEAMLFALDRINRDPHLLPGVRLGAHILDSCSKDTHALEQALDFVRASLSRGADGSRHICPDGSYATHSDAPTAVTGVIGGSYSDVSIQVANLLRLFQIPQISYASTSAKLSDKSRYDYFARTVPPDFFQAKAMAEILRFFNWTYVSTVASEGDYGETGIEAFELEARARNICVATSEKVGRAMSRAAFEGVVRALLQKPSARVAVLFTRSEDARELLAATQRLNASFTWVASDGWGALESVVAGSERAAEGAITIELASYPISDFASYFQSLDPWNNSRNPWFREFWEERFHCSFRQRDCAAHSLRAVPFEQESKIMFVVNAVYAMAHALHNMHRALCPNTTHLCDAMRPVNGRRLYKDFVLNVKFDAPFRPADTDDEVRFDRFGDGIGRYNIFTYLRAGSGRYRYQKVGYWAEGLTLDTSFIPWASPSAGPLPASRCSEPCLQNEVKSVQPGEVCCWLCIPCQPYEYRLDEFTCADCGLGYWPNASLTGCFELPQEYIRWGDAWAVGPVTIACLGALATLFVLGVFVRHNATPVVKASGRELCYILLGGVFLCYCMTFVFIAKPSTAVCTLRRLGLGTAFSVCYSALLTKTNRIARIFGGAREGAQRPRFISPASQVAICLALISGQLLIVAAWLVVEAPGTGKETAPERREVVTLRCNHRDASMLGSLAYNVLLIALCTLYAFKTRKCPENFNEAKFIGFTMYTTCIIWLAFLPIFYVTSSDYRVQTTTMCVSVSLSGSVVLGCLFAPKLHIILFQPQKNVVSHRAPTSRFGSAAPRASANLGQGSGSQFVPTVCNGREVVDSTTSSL
# UniProt P46934, whole entry, looked up: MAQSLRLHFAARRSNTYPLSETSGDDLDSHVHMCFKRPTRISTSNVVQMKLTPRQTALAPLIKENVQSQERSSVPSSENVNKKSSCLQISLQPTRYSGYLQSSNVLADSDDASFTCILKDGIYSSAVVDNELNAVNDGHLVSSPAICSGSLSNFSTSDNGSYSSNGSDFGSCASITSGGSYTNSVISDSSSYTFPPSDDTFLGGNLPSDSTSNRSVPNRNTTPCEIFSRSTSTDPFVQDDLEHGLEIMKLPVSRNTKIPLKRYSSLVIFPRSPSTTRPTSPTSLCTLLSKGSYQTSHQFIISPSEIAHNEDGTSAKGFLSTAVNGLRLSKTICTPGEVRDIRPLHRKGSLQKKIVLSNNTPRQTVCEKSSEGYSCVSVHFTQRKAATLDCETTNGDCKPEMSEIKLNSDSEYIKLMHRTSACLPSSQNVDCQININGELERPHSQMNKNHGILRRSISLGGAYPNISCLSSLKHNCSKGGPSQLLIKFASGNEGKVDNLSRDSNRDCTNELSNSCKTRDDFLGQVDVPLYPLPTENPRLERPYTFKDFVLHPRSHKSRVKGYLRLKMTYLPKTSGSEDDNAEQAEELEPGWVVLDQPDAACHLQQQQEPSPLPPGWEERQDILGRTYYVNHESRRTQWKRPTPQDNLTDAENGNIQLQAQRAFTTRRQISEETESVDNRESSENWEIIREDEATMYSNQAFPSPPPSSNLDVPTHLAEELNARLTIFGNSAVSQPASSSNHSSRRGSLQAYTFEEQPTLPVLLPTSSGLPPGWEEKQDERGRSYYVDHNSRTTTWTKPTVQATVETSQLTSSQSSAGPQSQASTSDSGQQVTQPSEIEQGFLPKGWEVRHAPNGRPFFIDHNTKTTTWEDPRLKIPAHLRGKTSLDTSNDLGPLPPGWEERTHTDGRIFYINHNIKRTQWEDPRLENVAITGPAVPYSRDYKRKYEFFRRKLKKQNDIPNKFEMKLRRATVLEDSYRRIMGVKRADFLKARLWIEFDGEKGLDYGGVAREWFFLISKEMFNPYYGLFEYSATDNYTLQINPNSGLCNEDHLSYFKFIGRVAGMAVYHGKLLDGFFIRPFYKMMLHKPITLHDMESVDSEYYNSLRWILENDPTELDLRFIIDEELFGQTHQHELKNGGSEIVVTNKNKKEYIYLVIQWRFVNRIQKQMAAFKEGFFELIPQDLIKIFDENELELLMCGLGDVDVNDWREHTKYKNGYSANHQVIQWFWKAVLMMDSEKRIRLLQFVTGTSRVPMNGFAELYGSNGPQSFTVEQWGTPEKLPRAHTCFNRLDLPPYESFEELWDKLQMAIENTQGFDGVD
# UniProt Q9NTG7, whole entry: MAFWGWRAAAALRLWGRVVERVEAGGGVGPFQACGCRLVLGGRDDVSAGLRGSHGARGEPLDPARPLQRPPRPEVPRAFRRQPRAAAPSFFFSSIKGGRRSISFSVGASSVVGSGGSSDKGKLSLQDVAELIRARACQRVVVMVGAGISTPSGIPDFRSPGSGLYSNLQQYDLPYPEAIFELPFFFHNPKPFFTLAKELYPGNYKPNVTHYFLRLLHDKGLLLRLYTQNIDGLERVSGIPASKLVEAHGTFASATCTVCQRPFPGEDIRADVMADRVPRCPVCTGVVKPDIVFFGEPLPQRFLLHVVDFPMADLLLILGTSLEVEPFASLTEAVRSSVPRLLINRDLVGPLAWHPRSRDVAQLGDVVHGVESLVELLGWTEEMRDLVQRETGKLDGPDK
# UniProt P42264, 32-919 limits assumed: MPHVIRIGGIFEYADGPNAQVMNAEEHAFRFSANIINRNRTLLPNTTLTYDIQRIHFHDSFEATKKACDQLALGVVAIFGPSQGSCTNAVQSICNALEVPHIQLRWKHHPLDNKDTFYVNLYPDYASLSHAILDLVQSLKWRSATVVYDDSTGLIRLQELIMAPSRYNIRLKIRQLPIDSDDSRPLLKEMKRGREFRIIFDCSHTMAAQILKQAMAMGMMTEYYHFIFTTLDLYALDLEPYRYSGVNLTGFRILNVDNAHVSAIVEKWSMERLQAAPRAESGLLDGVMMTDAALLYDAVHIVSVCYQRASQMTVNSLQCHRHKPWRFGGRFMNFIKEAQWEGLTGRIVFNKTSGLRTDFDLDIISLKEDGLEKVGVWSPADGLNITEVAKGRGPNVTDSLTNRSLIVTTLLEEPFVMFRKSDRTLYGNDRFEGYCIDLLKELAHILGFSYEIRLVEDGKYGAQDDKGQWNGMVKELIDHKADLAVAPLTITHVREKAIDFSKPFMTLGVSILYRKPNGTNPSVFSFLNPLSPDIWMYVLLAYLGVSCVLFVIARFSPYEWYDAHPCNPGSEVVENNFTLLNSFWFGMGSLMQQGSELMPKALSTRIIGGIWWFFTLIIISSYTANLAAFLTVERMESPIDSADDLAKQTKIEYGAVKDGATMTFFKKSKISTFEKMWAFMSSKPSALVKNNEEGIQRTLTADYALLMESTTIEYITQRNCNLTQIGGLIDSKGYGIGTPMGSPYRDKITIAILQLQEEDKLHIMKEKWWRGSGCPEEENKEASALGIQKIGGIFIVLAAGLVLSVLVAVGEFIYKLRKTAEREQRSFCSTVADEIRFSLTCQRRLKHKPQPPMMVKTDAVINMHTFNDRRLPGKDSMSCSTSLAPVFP
# UniProt P05067, 672-713 limits assumed: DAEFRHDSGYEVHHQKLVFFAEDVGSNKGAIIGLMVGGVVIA
# UniProt P11473, whole entry: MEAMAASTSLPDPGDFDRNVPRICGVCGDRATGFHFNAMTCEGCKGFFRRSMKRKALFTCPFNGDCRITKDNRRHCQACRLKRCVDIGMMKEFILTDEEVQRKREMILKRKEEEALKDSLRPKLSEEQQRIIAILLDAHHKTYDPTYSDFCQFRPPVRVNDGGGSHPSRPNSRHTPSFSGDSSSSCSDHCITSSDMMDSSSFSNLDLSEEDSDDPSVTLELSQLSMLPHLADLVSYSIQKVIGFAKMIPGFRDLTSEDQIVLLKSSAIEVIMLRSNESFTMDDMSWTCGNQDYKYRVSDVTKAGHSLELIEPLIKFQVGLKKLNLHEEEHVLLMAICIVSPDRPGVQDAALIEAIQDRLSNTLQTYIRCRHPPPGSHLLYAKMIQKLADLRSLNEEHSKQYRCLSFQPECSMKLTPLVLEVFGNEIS
# UniProt Q06187, whole entry: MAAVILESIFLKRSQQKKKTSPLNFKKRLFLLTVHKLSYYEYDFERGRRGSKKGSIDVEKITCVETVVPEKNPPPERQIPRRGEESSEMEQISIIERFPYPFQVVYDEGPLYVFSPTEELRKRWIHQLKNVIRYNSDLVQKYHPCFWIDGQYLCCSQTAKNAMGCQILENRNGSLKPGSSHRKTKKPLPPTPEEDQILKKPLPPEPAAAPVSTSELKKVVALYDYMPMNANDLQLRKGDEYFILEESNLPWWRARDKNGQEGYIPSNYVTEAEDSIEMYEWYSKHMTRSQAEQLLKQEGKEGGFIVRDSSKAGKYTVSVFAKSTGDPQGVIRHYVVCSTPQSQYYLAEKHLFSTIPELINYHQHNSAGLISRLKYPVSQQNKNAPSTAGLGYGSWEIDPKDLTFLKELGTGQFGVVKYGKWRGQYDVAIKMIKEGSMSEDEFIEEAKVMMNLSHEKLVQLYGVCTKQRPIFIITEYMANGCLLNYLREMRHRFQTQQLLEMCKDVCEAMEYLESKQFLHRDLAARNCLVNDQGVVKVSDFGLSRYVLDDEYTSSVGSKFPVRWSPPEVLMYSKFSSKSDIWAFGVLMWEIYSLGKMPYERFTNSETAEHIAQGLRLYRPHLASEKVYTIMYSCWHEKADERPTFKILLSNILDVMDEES
# UniProt P45983, 1-384 isoform 3: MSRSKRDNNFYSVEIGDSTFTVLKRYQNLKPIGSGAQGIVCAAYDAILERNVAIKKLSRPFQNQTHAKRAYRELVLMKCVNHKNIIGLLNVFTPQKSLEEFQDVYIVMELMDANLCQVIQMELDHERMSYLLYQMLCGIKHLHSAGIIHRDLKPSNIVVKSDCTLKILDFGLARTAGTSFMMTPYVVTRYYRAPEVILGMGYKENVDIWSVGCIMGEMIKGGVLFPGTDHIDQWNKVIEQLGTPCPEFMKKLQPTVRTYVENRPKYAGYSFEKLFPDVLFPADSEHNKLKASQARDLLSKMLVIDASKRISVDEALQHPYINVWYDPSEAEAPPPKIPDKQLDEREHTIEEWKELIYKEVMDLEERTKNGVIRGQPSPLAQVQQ
# UniProt P30291, whole entry: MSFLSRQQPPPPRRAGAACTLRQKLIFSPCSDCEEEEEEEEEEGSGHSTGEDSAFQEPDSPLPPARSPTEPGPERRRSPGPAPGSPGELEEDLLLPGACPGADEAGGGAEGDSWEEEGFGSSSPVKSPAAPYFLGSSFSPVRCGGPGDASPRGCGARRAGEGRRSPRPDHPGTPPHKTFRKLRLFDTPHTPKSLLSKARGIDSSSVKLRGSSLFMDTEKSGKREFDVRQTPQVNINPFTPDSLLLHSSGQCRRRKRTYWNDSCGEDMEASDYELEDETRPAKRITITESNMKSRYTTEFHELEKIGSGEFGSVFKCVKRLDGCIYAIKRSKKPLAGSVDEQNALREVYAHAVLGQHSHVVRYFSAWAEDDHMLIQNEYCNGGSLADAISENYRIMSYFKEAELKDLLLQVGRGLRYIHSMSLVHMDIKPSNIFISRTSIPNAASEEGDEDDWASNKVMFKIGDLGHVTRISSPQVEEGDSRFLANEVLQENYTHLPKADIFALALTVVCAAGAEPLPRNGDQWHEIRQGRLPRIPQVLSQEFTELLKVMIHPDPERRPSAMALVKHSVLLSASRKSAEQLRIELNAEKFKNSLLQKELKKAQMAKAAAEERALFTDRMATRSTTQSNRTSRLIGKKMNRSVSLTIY
# Each line is one published result; not all experiments were run side by side. Values joined by “and” are separate records of one study, mostly repeats; a detail may differ. ± gives the spread as reported.
# GRM4: Metabotropic glutamate receptor 4 (GRM4, Homo sapiens, UniProt Q14833)
# Grm2: Metabotropic glutamate receptor 2 (Grm2, Rattus norvegicus, UniProt P31421)
# RPA1 N-terminal domain: Replication protein A 70 kDa DNA-binding subunit, N-terminal domain (RPA1, Homo sapiens, UniProt P27694)
# FPR1: fMet-Leu-Phe receptor (FPR1, Homo sapiens, UniProt P21462)
SMILES,tested on,assay,test system,setting,how to read,measurement,value
CCOC(=O)/C=C/CNCCCN1c2ccccc2CCc2ccccc21,"E3 ubiquitin-protein ligase NEDD4 (Homo sapiens, UniProt P46934)","inhibitor, Ub-TR-FRET",,"1.235 µM, 1 h preincubation, HECT domain, with: ATP 2 mM",higher = more ubiquitination,ubiquitination TR-FRET signal AUC,117000 a.u. and 122000 a.u. and 121000 a.u.
CC(=O)N[C@@H](CCC(N)=O)C(=O)N[C@H](C(=O)N[C@@H](C)C(=O)N[C@@H](CCCNC(=N)N)C(=O)N[C@@H](CCCCNC(=O)CCc1ccc(N=Nc2ccc(N(C)C)cc2)cc1)C(=O)N[C@@H](CO)C(=O)N[C@H](C(=O)NCC(=O)NCC(=O)NCCCNC(=S)Nc1ccc2c(c1)C(=O)OC21c2ccc(O)cc2Oc2cc(O)ccc21)[C@@H](C)O)[C@@H](C)O,"NAD-dependent protein deacetylase sirtuin-3, mitochondrial (SIRT3, Homo sapiens, UniProt Q9NTG7)","enzyme activity, substrate, plate reader kinetics",,"60 nM enzyme, with: 500 µM NAD+",,kcat,0.0019 ± 3e-05 s⁻¹
O=C(O)CC[C@H](NC(=O)c1cc(C(=O)O)cc([C@H]2CCN[C@@H]2C(=O)O)c1)C(=O)O,"Glutamate receptor ionotropic, kainate 3 (Rattus norvegicus, UniProt P42264)",radioligand binding,Sf9 membranes,"10 µM, homomeric receptor, with: [3H]kainate",,specific binding,86 ± 3%
COc1ccccc1Nc1c(C(=O)O)ccnc1C(=O)O,"Lysine-specific demethylase 4E (KDM4E, Homo sapiens, UniProt B2RXH2)","inhibitor, FDH-coupled spectrophotometry, refers to: formaldehyde",,200 µM,,remaining activity,2%
Nc1nc(SCc2ccc(Cl)cc2)nn1S(=O)(=O)c1cccc2c1CCCC2,"Lysophospholipase-like protein 1 (LYPLAL1, Homo sapiens, UniProt Q5VWZ2)","activator, gel-based ABPP",purified protein,,reference: DMSO,FP-rhodamine labelling,2.4 fold
O=C(Nc1cccc(F)c1)C12CC1/C(=N\O)c1ccccc1O2 (centres unmarked),GRM4,"positive allosteric modulator, calcium mobilization",CHO expressing Gqi5,"concentration not given, with: glutamate EC20",reference: glutamate 1 mM,response,90.4 ± 7.8%
NC(=O)c1cn(-c2ccc(F)cc2)c2ccc(CN3CCCS(=O)(=O)CC3)cc2c1=O,Grm2,"calcium mobilization, negative allosteric modulator",,"30 µM, with: glutamate 100 µM",reference: glutamate maximum,response,1.24 ± 0.04%
CC(C)(C(=O)/C=C/c1ccc(O)c(OC(F)(F)F)c1)C(=O)/C=C/c1ccc(O)c(OC(F)(F)F)c1,"Amyloid-beta precursor protein (APP, Homo sapiens, UniProt P05067)","SDS-PAGE western blot, refers to: Aβ1-42 species 75-200 kDa",,"30 µM, 24 h, 37 °C, with: Aβ 10 µM",reference: DMSO control,Aβ band density,524 ± 277%
CCc1ccc(NC(=O)c2ccc(C)c(S(=O)(=O)Nc3ccc(Br)cc3)c2)c(C(=O)O)c1,RPA1 N-terminal domain,"binding, fluorescence polarisation competition",,with: FITC-ATRIP probe,,ligand efficiency,0.22
CC(=O)Nc1ncc(CN2CC[C@H](Oc3cccc(F)n3)C[C@@H]2C)s1 [isotope labelled],"Protein O-GlcNAcase (Rattus norvegicus, UniProt Q8VIJ5)",saturation binding,rat cerebellum homogenate,radiolabelled compound,,Bmax,6.6 ± 0.6 nM
Cc1cc(SCc2sc(-c3ccc4cn[nH]c4c3)nc2C)ccc1OCC(=O)O,"Vitamin D3 receptor (VDR, Homo sapiens, UniProt P11473)","reporter gene, antagonist",HEK-293T,"up to 100 µM, CYP24A1 promoter luciferase, with: 1,25(OH)2D3 10 nM",,IC50,inactive
CC(C)(C)c1ccnc(NC(=O)c2ccc(-c3nn([C@@H]4CCCN(C(=O)C5CC5)C4)c4ncnc(N)c34)cc2)c1,"Tyrosine-protein kinase BTK, non-phosphorylated (BTK, Homo sapiens, UniProt Q06187)",TR-FRET binding kinetics,,"37 °C, unphosphorylated protein",,koff,0.00686 ± 0.00088 s⁻¹
Cc1cc(NC(=O)c2cccc(NC(=O)C3=CC(C)(C)CC3=O)c2)ccc1Nc1nccc(-c2cccnc2)n1,"Mitogen-activated protein kinase 8 (MAPK8, Homo sapiens, UniProt P45983)","kinase activity, inhibitor",,"44.44 µM, unit not given, with: 10 mM GSH",reference: DMSO,remaining activity,0.0508
Nc1nc2ccccn2c1C(=O)c1ccc2c(c1)CN(C1CCC(=O)NC1=O)C2=O (centres unmarked),"WEE1/CRBN (Homo sapiens, UniProt P30291+Q96SW2)","degrader, HiBiT",Jurkat,5 h,,Dmax,61%
CC(=O)N1CCC[C@H]1C(=O)N[C@@H](CCC(N)=O)C(=O)N[C@@H](CC(C)C)C(=O)N1CCC[C@H]1C(=O)N[C@@H](Cc1ccccc1)C(N)=O,"Protein-glutamine gamma-glutamyltransferase (TGM2, Homo sapiens, UniProt P21980)","enzyme activity, activator, GLDH-coupled deamidation",,"competitive model, with: Ca2+",,apparent Ka,~1 mM
O=C(O)c1ccnc(C(=O)O)c1Nc1ccccc1[N+](=O)[O-],"fdhA (Pseudomonas putida, UniProt P46154)","inhibitor, spectrophotometric",,"200 µM, counterscreen",,remaining activity,59%
COC(=O)[C@@H]1C(C=Nc2ccccc2)=Cc2cc3c(cc2[C@H]1c1cc(OC)c(OC)c(OC)c1)OCO3,Leishmania infantum,iRFP fluorescence,"mouse splenocytes infected, amastigote, iRFP, ex vivo splenic explant",48 h,,EC50,19.9 ± 2.1 µM
N#Cc1cnc(Nc2nc3ccccc3o2)nc1-c1ccc(Cl)cc1,"Metabotropic glutamate receptor 5 (Grm5, Rattus norvegicus, UniProt P31424)","calcium mobilization, negative allosteric modulator",,with: glutamate EC80,reference: glutamate maximum,maximal response,2.5 ± 0.5%
COc1ccc2nc(SCC(=O)Nc3ccc(OC(F)(F)F)cc3)[nH]c2c1,FPR1,"calcium mobilization, agonist",transfected HL-60 cells,concentration not given,,activity class,active
Cc1nc(-c2ccc(OCC(C)C)c(C#N)c2)sc1C(N)=O,Grm2,"thallium flux, positive allosteric modulator",HEK293 GIRK,with: glutamate EC20,reference: glutamate max,efficacy,117 ± 9.1%
Nc1nc(CCCc2ccc(Cl)cc2)nn1S(=O)(=O)c1ccc2ccccc2c1,"Lysophospholipase-like protein 1 (Mus musculus, UniProt Q3UFF7)","activator, gel-based ABPP FP-rhodamine",,,reference: DMSO,probe labelling,1 fold
CN1CCN(c2ccc(-c3cccc(CN4CCN(CCNC(=O)CCCCCCCNc5cccc6c5C(=O)N(C5CCC(=O)NC5=O)C6=O)CC4)c3)cc2NC(=O)c2c[nH]c(=O)cc2C(F)(F)F)CC1 (centres unmarked),"WD repeat-containing protein 5 (WDR5, Homo sapiens, UniProt P61964)","degrader, immunoblot, refers to: WDR5 protein level",MV4;11,0.5 µM,,onset time of degradation,≤ 2 h
COc1ccc(NC(=O)CN2CCCN(S(=O)(=O)c3ccc(OC(F)(F)F)cc3)CC2)c(OC)c1,GRM4,"calcium mobilization, positive allosteric modulator",CHO cells with Gqi5,with: glutamate,reference: PHCCC maximal response,maximal response,48.2 ± 4.6%
Cc1ccc(NS(=O)(=O)c2cc(C(=O)Nc3ccccc3C(=O)O)ccc2C)cc1,RPA1 N-terminal domain,"binding, fluorescence polarisation competition",,with: FITC-ATRIP probe,,ligand efficiency,0.17
N#Cc1ccc2[nH]cc(/C=C/c3ccc([N+](=O)[O-])cc3F)c2c1,"Amyloid-beta precursor protein, Aβ1-40 (APP, Homo sapiens, UniProt P05067)","Aβ40 aggregation, thioflavin T fluorescence",,25 µM,,inhibition,27%
Cc1ccc(NS(=O)(=O)c2cc(C(=O)Nc3ccccc3C(=O)O)ccc2C)cc1Cl,RPA1 N-terminal domain,"binding, fluorescence polarisation competition",,with: FITC-ATRIP probe,,ligand efficiency,0.19
CCn1c(-c2cc(NC(=O)c3cnccn3)n[nH]2)cc2ccccc21,"Casein kinase II subunit alpha' (CSNK2A2, Homo sapiens, UniProt P19784)","enzyme activity, inhibitor",,,,maximal inhibition,~65%
CCOc1ccc(C(=O)C2=C(O)C(=O)N(CCCN3CCOCC3)C2c2cc(OC)ccc2OC)cc1 (centres unmarked),FPR1,"fMLF-induced calcium mobilization, antagonist",HL-60 expressing FPR1,concentration not given,,antagonist activity,inactive
CC(=O)N1CCN(c2ccc(Nc3ncc4c(n3)N(C)C(=O)N(c3cc(NC(=O)c5ccc(CN6CCC(N(C)C)C6)c(C(F)(F)F)c5)ccc3C)C4)cn2)CC1 (centres unmarked),"FGFR4/Transcription factor ETV6 (Homo sapiens, UniProt P22455+P41212, V550E)",cell proliferation,Ba/F3 TEL-FGFR4 V550E,,,GI50,0.024 µM
